Measured values of several laboratories.
Each numbered part is a random draw from the data of one study; scales do not carry over between parts.

Block 1
Target: RNA binding protein fox-1 homolog 2, RRM domain, GST-SBP tag (RBFOX2, Homo sapiens, UniProt O43251-10, residues 100-194)
Technique: RNA Bind-n-Seq
Form: RNA
Sample: in vitro
Tested at: 365 nM
Setting: natural RNA segment, single round, ends assumed
Relative to: no-protein control
Reading: higher = stronger binding
Shared flanks, not repeated: GGGAGUUCUACAGUCCGACGAUC … UGGAAUUCUCGGGUGCCAA
Residues (chain): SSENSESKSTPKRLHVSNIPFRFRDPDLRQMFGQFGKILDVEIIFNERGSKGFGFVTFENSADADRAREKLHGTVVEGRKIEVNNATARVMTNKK
Strand | RBNS enrichment (R)
UCAUUCCUUCCAAGAUGAGAAAAACUUGCCGCCACCCCCCGACACUGAUGCCAGGGAGGUGGGAGGAAGAAGUGGGAAAUUUCCCUUCCCAGUACCCCCAAGAACGUCUG | 0.227
UAGGAGAAUGGGAGGAGGGUCUCGUGGAAAUGUAGCUAUUGGAUCUUUCCUGCACUUAUGGAAAUGCUUUGUCUUUCCCAAUGAAACUGAUGUUUGCUUGUCUGCUUUCU | 2.67
GGCACUUAUCUCUGGGAAAUUUGCCUCUCUUGGGACUCUCCCCCUCCCAGGCAUUUUCCAUUCCUGGAAAGGCUCCUUUGGGGUUCAGAAUCCAGAGACCAAACCCUGAC | 0.247
CUAGUUAUCUUUUAAAGACUGUGGUGGUCUUAAAAGGGAACAAAAGCUACUACAGACUAAAUUUAUGUUUCACCUAGAAUAUAAAACUGUUAGACAUUGGGUUCUCCUUU | 0.314
AAUUUUUAUUUGCAGCUUAGGUUUUUAUAUGAAGUUGCAUUAUUGUGGACUUGGCUGUCUUGUGAUGUAUUUUUUUCAUAUGUAUCCUGUGCCAUACUAUUGUUAAAAUG | 0.461
AGAAGGGCUGGGGCCGGGGCUGAGGGUGCCCUUUUCCAGCCUCAGCCUACUCCGCUCACUGAACUCCUUCCCCACUUCUGUGCCACCCCCGGUCUAUGUCGAGAGCUGGC | 0.35
AUUCCAGUCAUAUGUGUGUGUAACUGCAUCCUAUGAGAAGAGCACAAAUAUUGCUGUUCCAUGUUCUCCACUUUCAUUUUCCACUACAAAUGAAAAGCAAUUUUUGAGAC | 1.34
GAAAUGGCGAGCAGACAUCUGUUCCAUGCACUAGUUAAUGCUACUGGCUCAGCAUAUACAAGUUAGCUUGCUUUAGGCAAGGGACCUUUCUUGUGAUGGACGUGCACUAC | 0.334
AUGGUUUGACUUUUUAAUUCUAGUACUUACAACCUUUAAUCUUGGUAACUGUGGCCAAAUAUCUAUUGUUAUACAUAUCUCUGAAUGUGCUUGUAAGUGGUUAAAUAAUU | 1.16
UCUUCAAGUCCCGCUGACGUCUGAGCUUUGAUGCUUAAGAGGGGUGAGGCAGGGAGCGGACUUCCUAUUUUCUACCCUCAGUAAAACAAGGUGCUGCUUUGUAUAUCAAA | 0.379
AAACUCCAUUCUAGAUGUUAGGAAAGUUGUAACAUGCACACUCACUCAGCCGAUCAGGAAUCAUUGGCAGAUGCACAUGCCCUGGAACUUUCCCUUAGUUUUGUGAACUC | 1.27
CCCUGCAGCUAUGAAAGCAGUCACCAGCUAAUUGUGGAAAAGUAUCAGGAGAUUCAAAUUCUUGGCUGUUUCAGAACUCUUGAGCUCAGUCAGGCAGGGAUGUUUUUAAA | 0.337

Block 2
Target: Centromere-binding protein 1, full length, N-terminal tag (CBF1, Saccharomyces cerevisiae, UniProt P17106, residues 1-351)
UniProt P17106, sequence (whole entry, looked up): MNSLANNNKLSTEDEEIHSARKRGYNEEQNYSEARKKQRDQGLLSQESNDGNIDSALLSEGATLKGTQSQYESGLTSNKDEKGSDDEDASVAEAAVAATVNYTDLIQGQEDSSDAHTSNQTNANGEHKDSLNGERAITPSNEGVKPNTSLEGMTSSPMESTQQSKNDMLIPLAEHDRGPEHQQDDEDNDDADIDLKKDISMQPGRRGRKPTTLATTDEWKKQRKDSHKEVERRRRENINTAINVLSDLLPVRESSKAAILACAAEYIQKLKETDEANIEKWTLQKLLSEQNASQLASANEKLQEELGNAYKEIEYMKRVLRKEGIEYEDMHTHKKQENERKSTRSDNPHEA
Technique: protein-binding microarray
Form: double-stranded DNA, one strand shown
Sample: in vitro
Tested at: 0.8 µM
Setting: whole 60-bp probe, no competitor
Reading: higher = stronger binding
Shared flanks, not repeated: … GTCTTGATTCGCTTGACGCTGCTG
Strand | fluorescence intensity
CCTAACTACTATAAAAGCGTGCAATAGCTTCGTACA | 525 a.u.
GAACGCGAAAATGACCACGCGAAAAGAAAAATTTAG | 573 a.u.
GAATATCTTTTTAACATCAGAATTTCAACAAATTAG | 544 a.u.
GAAAGAAGACCGTCGCTGGTGGTGCTTACACTGTAG | 496 a.u.
CTACGAACGAGGAGTGACGTGGACGCGATGAAGTTC | 516 a.u.
CTACTAAACAATGGTGATGATATGTTAAACTATTTC | 540 a.u.
GAAACCTGTTGACATGCCGTGGCAAATGATTGGTAG | 487 a.u.
CTATAGTTGAGTTTTCACTCACGTACAGCTAGATTC | 578 a.u.
CTAAATTTAGTTGAACATGTGACGAAAGCTCTGTTC | 5210 a.u.
GAACGTGGTGGCGCTGGTGACGAAGAGGATCGATAG | 549 a.u.
GAAAGTCACTACCTTCATCACCCGTACGAGTATTAG | 527 a.u.
CTATAAGGCTCTACACACGTTTACGATGATATTTTC | 538 a.u.
TGTACGAAGCTATCGCACGTGGCTATAGTAGTTAGG | 3980 a.u.
GAAACCCTAGATCACCTCATGATATCCTTTTGATAG | 544 a.u.
GAATGCCGCGTATATCATGACACTTATACTTGGTAG | 541 a.u.
GAAAACGGGGATCAACATCAGCAAGAAAGCAAATAG | 689 a.u.
CTACTTGCTATAGATCACGCACCCTTTTGGCAATTC | 1160 a.u.
GAATTACCAAAGCTAAACGTGTCCGCCGCATTATAG | 503 a.u.
CTAGTTAATATTGATCACGAGAATAACAGATCTTTC | 2270 a.u.
GAACTACACGAGTCGCACGAGGACCCTGAAAAATAG | 718 a.u.
CTATTTCGTGCCGCAAACGTGGAGATGGGAAAATTC | 563 a.u.
GAACAGCATTGCGCTTGCGTGCCGCTCCGAGAATAG | 532 a.u.
GAACAAAGTTCATATCACGATAAACGTCAGTTCTAG | 542 a.u.
GAACGAAAATAGCACGTGCCTATTGATCTTAATTAG | 14600 a.u.
CTAATTTTTTTCTGTCAGGTGCGGCCCATCATCTTC | 1110 a.u.

Block 3
Target: Prothrombin, mature alpha-thrombin (F2, Homo sapiens, UniProt P00734)
Technique: aptamer microarray, sandwich
Form: DNA with 2'F-ANA
Sample: in vitro
Tested at: 200 nM
Setting: whole 15-mer aptamer, many near background
Together with: Cy3 exosite-II aptamer, 400 nM
Reading: higher = stronger binding
Strand: GGTTGGTGTGGTTGG
Modification | mean fluorescence intensity [a.u.]
2'F-ANA at 1 3 5 9 10 14 | 46.4
2'F-ANA at 1 4 5 7 8 10 11 14 15 | 46.2
2'F-ANA at 2 3 4 6 10 11 12 | 293
2'F-ANA at 2 3 5 8 9 11 12 13 14 15 | 58.9
2'F-ANA at 1 2 3 5 9 11 12 13 15 | 73.8
2'F-ANA at 1 2 4 5 6 8 9 10 13 | 48.8
2'F-ANA at 4 5 6 10 11 13 14 15 | 123
2'F-ANA at 4 5 7 14 | 43
2'F-ANA at 3 5 6 7 8 9 11 12 15 | 193
2'F-ANA at 1 2 5 6 7 11 13 | 48.3
2'F-ANA at 1 2 5 9 11 13 14 | 50.1
2'F-ANA at 2 3 4 5 6 7 8 10 11 12 | 62.5
2'F-ANA at 5 10 13 15 | 49.4
2'F-ANA at 6 13 14 15 | 164
2'F-ANA at 2 7 8 11 12 14 15 | 184

Block 4
Target: Sal-like protein 4, full length isoform A (SALL4, Homo sapiens, UniProt Q9UJQ4, residues 1-1053)
UniProt Q9UJQ4, sequence (whole entry, looked up): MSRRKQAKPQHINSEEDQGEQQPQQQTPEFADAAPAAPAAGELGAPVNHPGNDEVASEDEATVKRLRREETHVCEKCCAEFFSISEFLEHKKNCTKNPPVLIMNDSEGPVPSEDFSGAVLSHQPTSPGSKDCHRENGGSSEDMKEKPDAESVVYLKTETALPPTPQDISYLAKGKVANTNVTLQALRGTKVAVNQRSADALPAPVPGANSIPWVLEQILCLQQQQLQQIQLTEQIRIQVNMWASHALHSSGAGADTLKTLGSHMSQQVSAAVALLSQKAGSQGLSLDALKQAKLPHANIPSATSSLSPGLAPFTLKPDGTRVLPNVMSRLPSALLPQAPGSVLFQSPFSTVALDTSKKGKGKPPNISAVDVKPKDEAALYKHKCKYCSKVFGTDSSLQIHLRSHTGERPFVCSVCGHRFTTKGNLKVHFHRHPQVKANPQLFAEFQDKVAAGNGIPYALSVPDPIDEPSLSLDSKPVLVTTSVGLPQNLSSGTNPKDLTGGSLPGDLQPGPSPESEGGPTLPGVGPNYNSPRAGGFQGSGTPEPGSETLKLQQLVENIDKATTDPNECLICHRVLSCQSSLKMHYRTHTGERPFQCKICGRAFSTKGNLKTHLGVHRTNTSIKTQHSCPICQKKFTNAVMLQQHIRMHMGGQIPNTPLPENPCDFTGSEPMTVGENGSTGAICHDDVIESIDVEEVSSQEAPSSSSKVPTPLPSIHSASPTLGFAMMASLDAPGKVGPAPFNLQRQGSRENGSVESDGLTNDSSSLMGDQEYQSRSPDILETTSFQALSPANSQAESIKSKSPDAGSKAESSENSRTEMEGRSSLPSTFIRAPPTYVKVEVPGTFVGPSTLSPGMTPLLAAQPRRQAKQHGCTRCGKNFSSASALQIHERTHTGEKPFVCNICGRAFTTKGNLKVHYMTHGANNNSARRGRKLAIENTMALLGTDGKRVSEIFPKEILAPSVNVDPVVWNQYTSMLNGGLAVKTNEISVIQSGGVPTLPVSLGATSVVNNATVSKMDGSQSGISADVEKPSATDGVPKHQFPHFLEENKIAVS
Technique: universal PBM
Form: double-stranded DNA, one strand shown
Sample: in vitro
Tested at: 600 nM
Setting: 8-mer, flanks averaged, mean of replicates
Reading: higher = stronger binding
Strand | E-score
GTTCCATA | 0.106
AGTCCGGC | -0.29
AGGGGCGG | -0.283
CAGGGGAC | -0.253
CAGTTCAA | 0.0505
CCACGTAG | -0.294
AACAGGTT | 0.143
CCCGATGC | -0.369
CGCCGACA | -0.266
AAACGCCT | -0.0608
GTGGATGA | -0.0445
AGTCCGGG | -0.313
ACCGGAGA | -0.0812
AGCGGTCG | -0.325
AATCTCTA | 0.181
ACAGGCTA | 0.0102
AACCGTCT | -0.124
GCCTCAGA | -0.128
ATTACGAC | 0.224

Block 5
Target: Interferon regulatory factor 5, full length, phosphomimetic (IRF5, Homo sapiens, UniProt Q13568-2, residues 1-514, S451D/S453D/S456D/S462D)
Technique: protein-binding microarray
Form: double-stranded DNA, one strand shown
Sample: in vitro
Tested at: 940 nM top
Setting: 60-bp whole probe
Together with: salmon DNA 0.4 mg/ml
Relative to: random background probes
Reading: higher = stronger binding
Shared flanks, not repeated: GCCTAGCAC … GTCTTGATTCGCTTGACGCTGCTG
Strand | fitted relative affinity
TTAGGACTGAGGTTTCGGTTAGTGCTA | 5.15 z-score
TAAGAACTGAGACTGGATTAGTGCTAG | 0.0854 z-score
CACTAGTTTCTTTTCTTTTCGTGCTAG | 3.74 z-score
AAAGATATAAATGTAACATGGTGCTAG | -0.154 z-score
TTAGGTCTCGGTTTCTGTTAGTGCTAG | 6.31 z-score
CTAGGTTTCGGACTGGGTTAGTGCTAG | 6.19 z-score
TCAAAACTCGTATGTGACACTGTGCTA | 0.0187 z-score
CCCTTTTCATGCTCTTATATAGTGCTA | 1.47 z-score
GCAGTTGTCGTTCAAGGCTGGTGCTAG | -0.467 z-score
GACGAACTGAGACTGGAGATGTGCTAG | 0.065 z-score
TTAGGTTTCCTTTCCCTTTGGTGCTAG | 2.1 z-score
GACGGACTGGGTTGCGGGACGTGCTAG | -0.059 z-score
TTAGGACTGGGGTATCGGTTCGTGCTA | 2.28 z-score
TTGGGACTGGGGTATCGGTTAGTGCTA | 2.34 z-score
GACGGTTTCCTACTGCTGGCGTGCTAG | 1.06 z-score
AGTATGAGTTGCCCTTTCCCGTGCTAG | 0.274 z-score
TCATTGATGGCTCTCTGACTGTGCTAG | -0.728 z-score
GACGATATCAGTATCCAGACGTGCTAG | -0.187 z-score
TTACATTTCAGTCTCGATTAGTGCTAG | 4.92 z-score
TAGAGGGAGTAAAGGAAAGAGTGCTAG | -0.41 z-score
AACGGTATCGACACTGGGGACGTGCTA | 4.45 z-score
TTAGGACTGGGTCACGGTTAGTGCTAG | -0.473 z-score
GACGGTTTCCTTTTTCTGACGTGCTAG | 2.11 z-score
TTAGGTATCGTCTTTCGGTTAGTGCTA | 4.92 z-score

A few entries again (block 4):
Strand | E-score
AGGGGCGG | -0.283
CAGGGGAC | -0.253
CAGTTCAA | 0.0505
CCACGTAG | -0.294
AACAGGTT | 0.143
CCCGATGC | -0.369
CGCCGACA | -0.266
AAACGCCT | -0.0608
GTGGATGA | -0.0445
AGTCCGGG | -0.313
ACCGGAGA | -0.0812
